Measured values gathered from unrelated publications.
Protocols differ between the studies behind these lines. “And” joins repeats or separate records; there may be more than shown. Numbers after ± are the reported error.
SLC47A2: Multidrug and toxin extrusion protein 2 (SLC47A2, Homo sapiens, UniProt Q86VL8)
Sequence of UniProt Q86VL8 (whole entry, looked up): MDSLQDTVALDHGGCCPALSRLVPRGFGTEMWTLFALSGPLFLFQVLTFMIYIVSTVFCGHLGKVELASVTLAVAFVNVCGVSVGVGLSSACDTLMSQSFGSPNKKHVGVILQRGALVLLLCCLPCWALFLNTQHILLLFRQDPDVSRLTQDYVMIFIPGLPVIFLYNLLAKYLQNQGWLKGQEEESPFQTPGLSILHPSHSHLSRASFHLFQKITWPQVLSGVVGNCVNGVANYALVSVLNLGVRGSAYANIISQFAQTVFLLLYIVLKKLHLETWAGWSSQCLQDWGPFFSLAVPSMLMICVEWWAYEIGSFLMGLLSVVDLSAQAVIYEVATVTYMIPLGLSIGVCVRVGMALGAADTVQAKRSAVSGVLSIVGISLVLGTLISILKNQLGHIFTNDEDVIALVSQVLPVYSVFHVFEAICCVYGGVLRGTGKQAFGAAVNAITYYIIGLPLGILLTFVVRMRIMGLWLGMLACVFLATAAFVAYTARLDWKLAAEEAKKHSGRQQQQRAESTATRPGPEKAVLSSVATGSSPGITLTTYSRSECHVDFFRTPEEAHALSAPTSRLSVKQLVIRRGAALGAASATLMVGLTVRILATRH
Sequence of UniProt Q9NPD5 (whole entry, looked up): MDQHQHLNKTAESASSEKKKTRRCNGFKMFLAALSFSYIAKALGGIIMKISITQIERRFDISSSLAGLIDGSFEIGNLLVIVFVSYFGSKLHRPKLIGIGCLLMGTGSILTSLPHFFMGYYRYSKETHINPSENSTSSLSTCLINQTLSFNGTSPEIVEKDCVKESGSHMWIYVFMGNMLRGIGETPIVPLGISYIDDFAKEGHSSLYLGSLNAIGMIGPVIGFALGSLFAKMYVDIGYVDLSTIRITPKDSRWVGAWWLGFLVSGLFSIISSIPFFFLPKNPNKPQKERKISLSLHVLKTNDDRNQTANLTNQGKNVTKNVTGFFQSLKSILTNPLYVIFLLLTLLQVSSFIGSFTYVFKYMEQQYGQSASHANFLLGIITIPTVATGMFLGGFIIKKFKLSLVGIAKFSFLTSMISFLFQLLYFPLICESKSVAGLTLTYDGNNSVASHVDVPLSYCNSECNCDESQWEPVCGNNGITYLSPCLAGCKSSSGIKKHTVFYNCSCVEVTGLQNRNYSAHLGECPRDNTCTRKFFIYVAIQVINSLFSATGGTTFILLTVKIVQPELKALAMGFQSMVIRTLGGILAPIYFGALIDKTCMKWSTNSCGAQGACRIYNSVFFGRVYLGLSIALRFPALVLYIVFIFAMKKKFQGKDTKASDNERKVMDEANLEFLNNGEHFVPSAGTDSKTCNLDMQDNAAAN

| Compound | tested on | assay | system | setting | scale | measurement | result |
| --- | --- | --- | --- | --- | --- | --- | --- |
| Cc1ccc2nc(Cl)c3cc(C(=O)NCCCN4CCC(C)CC4)sc3c2c1 | Vero-E6 | CellTiter-Glo ATP |  | concentration not given, 72 h, second round 5-point | reference: DMSO 0%, hyamine -100%, more negative, more toxic | cytotoxicity efficacy | -14.9% |
| CC(C)C[C@@H](NC(=O)[C@H](N)CCCCN)C(=O)N1CCC[C@@H]1C(=O)N[C@H](Cc1ccccc1)C(=O)N[C@H](Cc1ccccc1)C(=O)N[C@H](C)C(N)=O | NGF-differentiated PC-12 neurons |  |  | 20 µM, 24 h | reference: untreated | viability | 97% |
| [Cl-].[Cl-].[Pt+2].[Ru+2].c1ccc(-c2nc3ccccc3nc2-c2ccccn2)nc1.c1cnc2c(c1)ccc1cccnc12.c1cnc2c(c1)ccc1cccnc12 | Danio rerio |  | embryos | 30 µM, 48 h |  | survival rate | 83.3 ± 3.4% |
| CC(C)C[C@@H](NC(=O)[C@H](N)CCCCN)C(=O)N[C@@H](C(=O)N[C@H](Cc1ccccc1)C(=O)N[C@H](Cc1ccccc1)C(N)=O)C(C)C | NGF-differentiated PC-12 neurons |  |  | 20 µM, 24 h | reference: untreated | viability | 100% |
| O=c1ccc2ccccc2o1 | NHEK | cell membrane permeability |  | concentration not given, 6 h, apoptosis, necrosis panel |  | chance response | 0% |
| O=C1c2c(O)c(=O)ccn2N([C@@H]2c3ccccc3SCc3c2ccc(F)c3F)[C@@H]2COCCN12 |  |  | BALB/c mouse | subcutaneous, 0.5 mg/kg q24h |  | trough concentration | 0.222 ng/mL |
| CCCC(C(=O)c1ccc(O)c(O)c1)N1CCCC1 (centres unmarked) |  |  | rat | subcutaneous, 2 mg/kg MDPV, 40 min |  | brain-to-plasma ratio | 0.1 |
| CN/C(=N\[N+](=O)[O-])NCc1cnc(Cl)s1 |  |  | soil | 56 days, nominal 0.37 |  | recovery | 54% |
| CC(C)C[C@@H](N)C(=O)N1CCC[C@@H]1C(=O)N[C@H](Cc1ccccc1)C(=O)N[C@H](Cc1ccccc1)C(=O)N[C@H](C)C(N)=O | NGF-differentiated PC-12 neurons |  |  | 10 µM, 24 h | reference: untreated | viability | 100% |
| CN1CC[C@@H](c2c(O)cc(O)c3c(=O)cc(-c4ccc(C(F)(F)F)cc4Cl)oc23)[C@@H]1CO |  | measured: Dizziness | B-cell malignancies | oral, 150 mg, intermittent dosing |  | patients with adverse event | 33.3% |
| CN(CCC(Oc1ccc(C(F)(F)F)cc1)c1ccccc1)N=O (centres unmarked) | TK6 |  |  | 20 h, 4 h, together with: liver S9 |  | micronucleus induction | positive |
| O=[N+]([O-])c1ccc(N2CCC(NCCC(O)c3ccc(F)c4ccccc34)CC2)c(C(F)(F)F)c1 (centres unmarked) | Salmonella typhimurium | genotoxicity, SOS/umu test | TA1535/pSK1002 | 0.004 mg/mL, 4 h, with S9, lower range |  | induction factor | 0.7 |
| CCCCNC(=O)C1CCCN(Cc2nc(-c3ccc(Cl)cc3)oc2C)C1 (centres unmarked) | Vero-E6 | CellTiter-Glo ATP |  | 72 h, second round 5-point | reference: DMSO 0%, hyamine -100%, more negative, more toxic | maximum response | -26.4% |
| COc1cc2c(Oc3ccc4[nH]c(C)cc4c3F)ccnc2cc1OCC1(N)CC1 |  |  | paediatric recurrent refractory sarcoma | 10 mg |  | grade 1 or 2 Triglyceride elevation | 50% |
| COc1ccc(-c2cn3c(n2)sc2cc(C(=O)NCCCN4CCCCCC4)ccc23)cc1 | Vero-E6 | CellTiter-Glo ATP |  | concentration not given, 72 h, second round 5-point | reference: DMSO 0%, hyamine -100%, more negative, more toxic | cytotoxicity efficacy | -28.3% |
| C[C@]1(CO)Cc2ncn(-c3ccc(C#N)c(Cl)c3)c2C(=O)O1 |  |  | human | oral, 10 mg, fasted, single dose, geometric mean |  | t1/2 | 5.5 h |

| Compound | tested on | assay | system | setting | scale | measurement | result |
| --- | --- | --- | --- | --- | --- | --- | --- |
| CC(C)C[C@H](NC(=O)[C@H](C)NC(=O)[C@@H](NC(=O)[C@H](CCCNC(=N)N)NC(=O)[C@H](CC(C)C)NC(=O)[C@H](Cc1c[nH]c2ccccc12)NC(=O)[C@@H]1CCCN1C(=O)[C@@H](N)CCCCN)C(C)C)C(=O)N[C@@H](CS)C(=O)N1CCC[C@H]1C(=O)NCC(=O)O | HEp-2 | WST-1 |  | 128 µM, 24 h |  | viability | 108% and 98.2% and 102% |
| CCCCN(CCCNC(=O)c1cc(Nc2cccc(SC)c2)nc2ccccc12)Cc1ccccc1 | Vero-E6 | CellTiter-Glo ATP |  | 72 h, second round 5-point | reference: DMSO 0%, hyamine -100%, more negative, more toxic | maximum response | -8.97% |
| CO[C@H]1C[C@@H]2CC[C@@H](C)[C@@](O)(O2)C(=O)C(=O)N2CCCC[C@H]2C(=O)O[C@H]([C@H](C)C[C@@H]2CC[C@@H](OC(=O)NCCOCCOCCOCCOCCOCCOCCOCCOCCC(=O)N3CCc4cc(Cn5nc(-c6ccc7oc(N)nc7c6)c6c(N)ncnc65)ccc4C3)[C@H](OC)C2)C[C@@H](O)[C@H](C)/C=C(\C)[C@@H](O)[C@@H](OC)C(=O)[C@H](C)C[C@H](C)/C=C/C=C/C=C/1C |  | phase 1 dose escalation, measured: rash | advanced solid tumour patients | intravenous, 10 mg weekly, grade ≥3 |  | TRAE incidence | 0% |
| Cc1oncc1C(=O)Nc1ccc(C(F)(F)F)cc1 | SLC47A2 | transport, inhibitor | transiently transfected cells | 100 µM, 10 (unit not given), together with: thiamine |  | inhibition | 40.1% |
| CCCN1CCN(CCCNC(=O)c2cc3c(Cl)nc4ccccc4c3s2)CC1 | Vero-E6 | CellTiter-Glo ATP |  | 72 h, retest 8-point duplicates | reference: DMSO 0%, hyamine -100%, more negative, more toxic | maximum response | -21.2% |
| CCOC(=O)c1c(CSc2ccccc2)n(C)c2cc(Br)c(O)c(CN(C)C)c12 | SLC47A2 | transport, inhibitor | transiently transfected cells | 100 µM, 10 (unit not given), together with: thiamine |  | inhibition | 115% |
| CC1(C)[C@H](C=C(Cl)Cl)[C@H]1C(=O)OCc1cccc(Oc2ccccc2)c1 | CES2 human cytosolic |  |  | 0.1 µM, age 5 years |  | enzyme contribution | 8.87% |
| CCCC(C(=O)c1ccc2c(c1)OCO2)N1CCCC1.Cl (racemic) |  |  | rat | subcutaneous, 2 mg/kg, 240 min |  | brain-to-plasma ratio | 8.8 ± 1.4 |
| CCCCN(CCCNC(=O)c1cc(Nc2ccc(OC)c(OC)c2)nc2ccccc12)Cc1ccccc1 | Vero-E6 | CellTiter-Glo ATP |  | concentration not given, 72 h, second round 5-point | reference: DMSO 0%, hyamine -100%, more negative, more toxic | cytotoxicity efficacy | 0% |
| C=CCN1CC[C@]23c4c5ccc(O)c4O[C@H]2C(=O)CC[C@@]3(O)[C@H]1C5 | Hep3B | MTT |  | 100 µM, 72 h, 10% FBS |  | viability | 100% and 105% |
| CCC(CC)COC(=O)[C@H](C)N[P@](=O)(OC[C@H]1O[C@@](C#N)(c2ccc3c(N)ncnn23)[C@H](O)[C@@H]1O)Oc1ccccc1 | SLCO1B3 (Homo sapiens, UniProt Q9NPD5) | transport, inhibitor | transiently transfected cells | 100 µM, 10 (unit not given), together with: CCK-8 |  | inhibition | 107% |
| Cc1noc2c(NC3CCOCC3)cc(-c3cccc(C(F)(F)F)c3)nc12 | Vero-E6 | CellTiter-Glo ATP |  | 72 h, retest 8-point duplicates | reference: DMSO 0%, hyamine -100%, more negative, more toxic | maximum response | -44% |
| CC(=O)N1CCC(C(=O)N2CCN3C(=O)c4cc(-c5ccccc5)ccc4NC(=O)C3C2)CC1 (centres unmarked) | Salmonella typhimurium |  | TA1535 | 500 µg/plate |  | revertants per plate | 18.5 |
| CCN(CC)Cc1ccc(Nc2ccnc3cc(Cl)ccc23)cc1O | Vero-E6 | CellTiter-Glo ATP |  | concentration not given, 72 h, second round 5-point | reference: DMSO 0%, hyamine -100%, more negative, more toxic | cytotoxicity efficacy | 0% |
| CCCC(C(=O)c1ccc(O)c(OC)c1)N1CCCC1 (centres unmarked) |  | LC-MS/MS | rat, trunk blood plasma | subcutaneous, 4 mg/kg MDPV, 240 min |  | plasma concentration | 133 ± 8.8 ng/mL |
| CC(=O)c1c(C)c2cnc(Nc3ccc(C4CCN(CCS(C)(=O)=O)CC4)cn3)nc2n(C2CCCC2)c1=O |  |  | HR+/HER2- advanced breast cancer patients | oral, dose not given, all grades, dose escalation, sample B patients |  | patients with ALT increased | 21.1% |

Excerpt of the above:
| Compound | tested on | assay | system | setting | scale | measurement | result |
| --- | --- | --- | --- | --- | --- | --- | --- |
| O=[N+]([O-])c1ccc(N2CCC(NCCC(O)c3ccc(F)c4ccccc34)CC2)c(C(F)(F)F)c1 (centres unmarked) | Salmonella typhimurium | genotoxicity, SOS/umu test | TA1535/pSK1002 | 0.004 mg/mL, 4 h, with S9, lower range |  | induction factor | 0.7 |
| CCCCNC(=O)C1CCCN(Cc2nc(-c3ccc(Cl)cc3)oc2C)C1 (centres unmarked) | Vero-E6 | CellTiter-Glo ATP |  | 72 h, second round 5-point | reference: DMSO 0%, hyamine -100%, more negative, more toxic | maximum response | -26.4% |
